# Published values from different studies.
# Each numbered part is a random draw from the data of one study; scales do not carry over between parts. Positions count from the first letter of the parent shown.
# Sequence of UniProt P60604 (whole entry, looked up): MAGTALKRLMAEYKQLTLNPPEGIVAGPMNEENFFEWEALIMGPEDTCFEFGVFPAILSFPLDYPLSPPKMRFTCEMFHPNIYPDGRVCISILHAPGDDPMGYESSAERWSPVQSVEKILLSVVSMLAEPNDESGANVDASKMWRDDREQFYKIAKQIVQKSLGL
# Sequence of UniProt Q96LR5 (whole entry, looked up): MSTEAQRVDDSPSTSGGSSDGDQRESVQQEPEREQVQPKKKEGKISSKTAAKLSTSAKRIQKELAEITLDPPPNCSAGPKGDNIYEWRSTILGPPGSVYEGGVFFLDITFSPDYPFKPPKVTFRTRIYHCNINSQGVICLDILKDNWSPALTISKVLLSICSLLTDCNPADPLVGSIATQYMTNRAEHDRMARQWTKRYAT
# Sequence of UniProt P51965 (whole entry, looked up): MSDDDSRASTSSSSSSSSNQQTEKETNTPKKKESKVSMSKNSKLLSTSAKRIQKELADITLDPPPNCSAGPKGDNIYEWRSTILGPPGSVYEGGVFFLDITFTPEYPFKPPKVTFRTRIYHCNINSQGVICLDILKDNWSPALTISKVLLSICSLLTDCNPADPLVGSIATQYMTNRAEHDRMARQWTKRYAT
# Sequence of UniProt Q15819 (whole entry, looked up): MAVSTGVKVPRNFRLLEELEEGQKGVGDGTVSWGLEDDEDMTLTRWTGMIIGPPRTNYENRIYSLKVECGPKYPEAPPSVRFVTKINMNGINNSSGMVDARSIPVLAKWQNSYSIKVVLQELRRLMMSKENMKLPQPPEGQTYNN
# Sequence of UniProt Q5VVX9 (whole entry, looked up): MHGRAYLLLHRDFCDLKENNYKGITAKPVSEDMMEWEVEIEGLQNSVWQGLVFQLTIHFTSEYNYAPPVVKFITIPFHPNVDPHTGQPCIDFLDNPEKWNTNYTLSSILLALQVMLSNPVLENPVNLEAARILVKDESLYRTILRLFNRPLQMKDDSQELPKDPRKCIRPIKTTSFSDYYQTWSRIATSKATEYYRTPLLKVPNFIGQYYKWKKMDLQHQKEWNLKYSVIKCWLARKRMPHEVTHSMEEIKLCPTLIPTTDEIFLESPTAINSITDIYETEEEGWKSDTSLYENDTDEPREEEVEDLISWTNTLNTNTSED
# Sequence of UniProt P62256 (whole entry, looked up): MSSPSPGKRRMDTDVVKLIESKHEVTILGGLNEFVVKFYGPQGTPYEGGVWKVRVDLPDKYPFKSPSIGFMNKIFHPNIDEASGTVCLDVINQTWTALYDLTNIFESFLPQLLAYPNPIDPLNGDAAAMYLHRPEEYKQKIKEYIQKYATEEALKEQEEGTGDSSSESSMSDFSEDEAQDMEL
# Sequence of UniProt Q13404 (whole entry, looked up): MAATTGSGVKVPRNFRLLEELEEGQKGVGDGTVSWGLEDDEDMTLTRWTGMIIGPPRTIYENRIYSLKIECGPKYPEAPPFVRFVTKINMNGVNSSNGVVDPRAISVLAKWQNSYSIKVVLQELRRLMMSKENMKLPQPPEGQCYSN
# Sequence of UniProt Q8WVN8 (whole entry, looked up): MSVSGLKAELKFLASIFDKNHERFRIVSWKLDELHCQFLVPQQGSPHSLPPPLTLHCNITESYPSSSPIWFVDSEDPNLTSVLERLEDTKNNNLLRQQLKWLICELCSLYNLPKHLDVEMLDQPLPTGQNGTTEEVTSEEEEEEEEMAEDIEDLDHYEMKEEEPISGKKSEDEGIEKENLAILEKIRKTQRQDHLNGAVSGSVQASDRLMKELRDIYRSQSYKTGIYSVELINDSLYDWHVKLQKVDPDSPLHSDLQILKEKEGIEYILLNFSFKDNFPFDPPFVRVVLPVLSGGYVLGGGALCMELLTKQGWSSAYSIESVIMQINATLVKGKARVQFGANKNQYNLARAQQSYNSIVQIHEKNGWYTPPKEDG
# Sequence of UniProt O14933 (whole entry, looked up): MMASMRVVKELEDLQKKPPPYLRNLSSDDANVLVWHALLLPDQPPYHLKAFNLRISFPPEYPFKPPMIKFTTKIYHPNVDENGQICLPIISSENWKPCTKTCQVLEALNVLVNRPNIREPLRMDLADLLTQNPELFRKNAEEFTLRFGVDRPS
# Sequence of UniProt P61088 (whole entry, looked up): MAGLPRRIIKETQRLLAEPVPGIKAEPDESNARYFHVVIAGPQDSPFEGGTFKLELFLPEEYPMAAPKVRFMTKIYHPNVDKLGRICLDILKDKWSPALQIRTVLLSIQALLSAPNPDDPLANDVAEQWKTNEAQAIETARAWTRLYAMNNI
# Sequence of UniProt P49427 (whole entry, looked up): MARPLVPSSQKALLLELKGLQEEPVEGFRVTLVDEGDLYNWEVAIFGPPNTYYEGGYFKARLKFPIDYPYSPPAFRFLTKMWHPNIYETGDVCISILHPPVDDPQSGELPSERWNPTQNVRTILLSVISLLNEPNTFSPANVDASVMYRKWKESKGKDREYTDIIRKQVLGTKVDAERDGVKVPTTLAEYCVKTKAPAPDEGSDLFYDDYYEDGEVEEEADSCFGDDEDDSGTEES

# Block 1 — Molecule: STUB1 RING domain (UniProt Q9UNE7); method: yeast two-hybrid; sample: yeast; notes: mostly zero background; relative to: not given; direction: higher = stronger interaction
# Sequence of UniProt Q9UNE7 (whole entry, looked up): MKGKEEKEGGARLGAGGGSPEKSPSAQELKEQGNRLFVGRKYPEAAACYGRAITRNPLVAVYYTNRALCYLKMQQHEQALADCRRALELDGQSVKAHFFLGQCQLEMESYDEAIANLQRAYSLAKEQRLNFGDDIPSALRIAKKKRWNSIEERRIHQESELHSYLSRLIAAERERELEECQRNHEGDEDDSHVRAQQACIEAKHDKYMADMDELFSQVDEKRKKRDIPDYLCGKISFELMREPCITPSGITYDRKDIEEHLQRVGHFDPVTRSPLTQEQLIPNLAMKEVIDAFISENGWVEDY
target,lacZ reporter activity
UBE2G2 UBC core domain (UniProt P60604),0
UBE2U UBC core domain (UniProt Q5VVX9),3810
CDC34 UBC core domain (UniProt P49427),0
UBE2Q2 UBC core domain (UniProt Q8WVN8),0
UBE2V1 UBC core domain (UniProt Q13404),0
UBE2V2 UBC core domain (UniProt Q15819),0
UBE2E1 UBC core domain (UniProt P51965),0
UBE2N UBC core domain (UniProt P61088),0
UBE2E2 UBC core domain (UniProt Q96LR5),0
UBE2L6 UBC core domain (UniProt O14933),0
UBE2H UBC core domain (UniProt P62256),0

# Block 2 — method: RNA Bind-n-Seq; molecule type: RNA; sample: in vitro; concentration: 200 nM; notes: whole 134-nt RNA, ends assumed; added: 150 mM KCl; relative to: input library; direction: higher = stronger binding
# Target: Ras GTPase-activating protein-binding protein 1, full length (G3BP1, Homo sapiens, UniProt Q13283)
# Sequence of UniProt Q13283 (whole entry, looked up): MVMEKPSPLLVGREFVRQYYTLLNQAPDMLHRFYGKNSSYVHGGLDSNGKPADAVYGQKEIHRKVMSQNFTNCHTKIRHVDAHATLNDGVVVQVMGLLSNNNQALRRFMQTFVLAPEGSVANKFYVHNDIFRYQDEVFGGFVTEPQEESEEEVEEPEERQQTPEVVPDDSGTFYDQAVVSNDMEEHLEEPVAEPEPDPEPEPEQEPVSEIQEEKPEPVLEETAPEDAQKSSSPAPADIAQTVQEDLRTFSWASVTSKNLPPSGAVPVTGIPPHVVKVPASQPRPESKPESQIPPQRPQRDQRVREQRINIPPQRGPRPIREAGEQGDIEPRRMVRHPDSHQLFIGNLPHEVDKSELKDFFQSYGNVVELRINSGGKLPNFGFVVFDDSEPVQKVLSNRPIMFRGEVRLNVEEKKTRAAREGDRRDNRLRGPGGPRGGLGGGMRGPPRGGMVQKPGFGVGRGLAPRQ
# All sequences stand within: GGGAGUUCUACAGUCCGACGAUC … UGGAAUUCUCGGGUGUCAAGG
Sequence,log2 enrichment
UCCUGUGCUACACAUCGUAUGUACCGAAUCGGGGAAAAAAGGAAAAAAGGGGAAAAAAGGAAAGUAUUAUGUUACGCCGUUCGGAUCUGC,-0.349
AAGUCCUGUGCUACACAUCGUAUGUACCGAAUCGGGAAAGGGUUUGGGUUUUUGGGAAAGUAUUAUGUUACGCCGUUCGGAUCUGCACUU,-0.0137
UCAAGUCCUGUGCUACACAUCGUAUGUACCGAAUCGGUGGAAAAAAAGGUUUGGAAAGUAUUAUGUUACGCCGUUCGGAUCUGCACUUCC,-1.06
UCAAGUCCUGUGCUACACAUCGUAUGUACCGAAUCGGAAAGGAAAGGGGAAAGGAAAGUAUUAUGUUACGCCGUUCGGAUCUGCACUUCC,-0.868
GCAGGAAGUAAAAACAAAUGAAAAUGCUUCGGAUAGUGGCAGGGGUGGGGGUUGCUAAGGAAAGGGUGGGAUGGGAGUGGGUAAAGAGUU,0.894
UCAAGUCCUGUGCUACACAUCGUAUGUACCGAAUCGGAAAAAAAGGAAAGGUGGAAAGUAUUAUGUUACGCCGUUCGGAUCUGCACUUCC,-1.49
UCCUGUGCUACACAUCGUAUGUACCGAAUCAAACCCCCCCAAACCCCCCCAAAUUUAAAAAAGUAUUAUGUUACGCCGUUCGGAUCUGCA,0.539
UCCUGUGCUACACAUCGUAUGUACCGAAUCGGGAAAAAGGGGAAAAAGGGAAAAAGGGGAAAGUAUUAUGUUACGCCGUUCGGAUCUGCA,-0.0238
GCAGGAAGUAAAAACAAAUGGAAAUGCUUCGGAUAGUGGCAGGGGUGGGGGUUGCUAAGGAAACGGUGGGAUGGGAGUGGGUAAAGAGUU,0.735
CAUCCUUUGGGCCCCUCAAGGCCUUCAACCUGGUCAAGGACAGUGCCACGGGGCUCUCCAAGGGCUACGCCUUCUGUGAGUACGUGGACA,-1.47
GUCCUGUGCUACACAUCGUAUGUACCGAAUCGGGGAAAAAAAGGGGAAAGGGGAGGGGAAAGUAUUAUGUUACGCCGUUCGGAUCUGCAC,0.222
CCUCAAGUCCUGUGCUACACAUCGUAUGUACCGAAUCGGAAAGGUUUGGAGGAAAGUAUUAUGUUACGCCGUUCGGAUCUGCACUUCCAG,-0.1
AGUCCUGUGCUACACAUCGUAUGUACCGAAUCGGAAAAAGGGAAAAAGGGGAAAAAGGAAAGUAUUAUGUUACGCCGUUCGGAUCUGCAC,-0.852
AAGUCCUGUGCUACACAUCGUAUGUACCGAAUCGGUUUUUUUGGAAAAAGGAAAGGAAAGUAUUAUGUUACGCCGUUCGGAUCUGCACUU,-1.33

# Block 3 — target: CCNB3, cyclin fold, Cln2 fusion (human); method: yeast growth competition, sequencing; sample: yeast; notes: weak parent motif; relative to: not given; direction: higher = stronger binding
# Parent: SAMHD1 docking peptide (human); ASKSRVQLFKDDP; partner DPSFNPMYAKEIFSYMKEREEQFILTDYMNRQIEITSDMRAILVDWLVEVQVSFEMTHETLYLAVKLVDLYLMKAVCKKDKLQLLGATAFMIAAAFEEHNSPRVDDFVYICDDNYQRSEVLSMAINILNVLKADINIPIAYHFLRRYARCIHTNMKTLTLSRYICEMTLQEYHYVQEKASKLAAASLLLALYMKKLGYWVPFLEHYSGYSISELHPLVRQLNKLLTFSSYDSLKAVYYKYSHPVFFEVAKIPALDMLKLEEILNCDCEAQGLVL
Substitution,normalised enrichment score
F9W,0.0612
Q7G,0.0199
F9I,0.203
V6K,0.115
V6Y,-0.0192
K10L,0.0917
Q7Y,0.0911
K3Y,-0.341
K10S,0.246
L8G,-0.043
R5A,0.0299
K10M,-0.115
K3Q,-0.237
D11Y,0.0964
V6M,0.092
F9P,-0.0349
K3T,-0.371
F9C,-0.0479
K10W,0.249
K3P,-0.117
K10C,0.0688

# Block 4 — method: DHFR PCA, deep sequencing; sample: yeast; added: (+)-ABA 58 µM; relative to: wild-type fitted maximum; direction: higher = stronger binding
# Target: ABI1, truncated, D143A, DHFR fusion (Arabidopsis thaliana)
# Notes: methotrexate growth selection, single substitutions
# Parent: PYL1, truncated, DHFR fusion (Arabidopsis thaliana); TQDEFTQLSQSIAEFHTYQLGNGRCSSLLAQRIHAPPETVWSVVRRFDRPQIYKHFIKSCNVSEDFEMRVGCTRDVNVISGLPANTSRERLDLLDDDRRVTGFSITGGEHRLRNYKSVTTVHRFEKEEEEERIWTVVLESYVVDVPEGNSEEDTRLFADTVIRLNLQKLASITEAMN; partner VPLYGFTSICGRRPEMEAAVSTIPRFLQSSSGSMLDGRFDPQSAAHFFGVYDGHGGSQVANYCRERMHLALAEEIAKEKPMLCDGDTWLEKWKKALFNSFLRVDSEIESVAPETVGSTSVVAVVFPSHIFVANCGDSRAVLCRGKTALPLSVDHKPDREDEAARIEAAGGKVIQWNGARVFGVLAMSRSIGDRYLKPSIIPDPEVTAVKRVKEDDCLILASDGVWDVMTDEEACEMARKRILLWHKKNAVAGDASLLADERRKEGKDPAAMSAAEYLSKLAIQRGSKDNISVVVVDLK
Substitution,relative binding score
L164G,67.4%
A170C,82.3%
G71D,26%
F103V,9.54%
E128P,93.4%
N177T,82.6%
G71Y,3.99%
N22T,89.3%
L93A,78.6%
G23K,86.1%
E129A,98.7%
T160K,72.7%
G21S,88.8%
E127Y,91.7%
A84S,37.5%
R69L,77%
E38C,57.1%
Y53V,10.6%
I12P,-0.862%
E125F,98.5%
L28N,14.6%
V40Q,-6.48%
R74A,-3.81%
C60M,14.7%
E152S,81.7%

# Block 5 — target: JUN, bZIP domain (human); method: DHFR protein complementation; sample: yeast; relative to: wild-type JUN-FOS pair; direction: higher = stronger binding
# Notes: single substitutions, most at no-binding floor
# Parent: JUN, bZIP domain (human); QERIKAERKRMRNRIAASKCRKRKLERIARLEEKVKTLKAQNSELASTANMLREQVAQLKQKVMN; partner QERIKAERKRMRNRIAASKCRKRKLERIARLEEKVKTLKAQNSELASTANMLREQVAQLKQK
Substitution,binding fitness [natural log]
A40Q,0.0476
T37S,-0.245
Q58G,-0.357
Q41K,-0.36
E33Q,-0.34
R30T,-0.0804
K34R,-0.113
K34W,-0.195
E33D,-0.308
E44D,-0.5
K36Q,-0.323
Q58R,-0.417
I28S,-1.06
N42H,-0.383
A46K,-0.179
V35M,-0.716

# Single results of other studies — method: two-hybrid; relative to: out of 4 tests; direction: higher = firmer interaction
# T1: itself; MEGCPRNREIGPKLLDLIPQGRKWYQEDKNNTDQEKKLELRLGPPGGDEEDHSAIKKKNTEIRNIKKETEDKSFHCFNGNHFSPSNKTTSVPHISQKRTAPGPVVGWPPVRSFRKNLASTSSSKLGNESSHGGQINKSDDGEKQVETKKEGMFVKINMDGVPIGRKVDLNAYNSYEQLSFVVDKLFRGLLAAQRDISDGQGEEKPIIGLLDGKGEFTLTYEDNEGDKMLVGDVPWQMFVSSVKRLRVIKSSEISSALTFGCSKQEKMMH
# T2: itself; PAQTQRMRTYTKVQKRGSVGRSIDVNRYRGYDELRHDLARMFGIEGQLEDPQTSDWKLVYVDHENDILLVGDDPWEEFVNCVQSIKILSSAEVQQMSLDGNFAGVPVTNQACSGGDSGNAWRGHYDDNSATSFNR
# T3: itself; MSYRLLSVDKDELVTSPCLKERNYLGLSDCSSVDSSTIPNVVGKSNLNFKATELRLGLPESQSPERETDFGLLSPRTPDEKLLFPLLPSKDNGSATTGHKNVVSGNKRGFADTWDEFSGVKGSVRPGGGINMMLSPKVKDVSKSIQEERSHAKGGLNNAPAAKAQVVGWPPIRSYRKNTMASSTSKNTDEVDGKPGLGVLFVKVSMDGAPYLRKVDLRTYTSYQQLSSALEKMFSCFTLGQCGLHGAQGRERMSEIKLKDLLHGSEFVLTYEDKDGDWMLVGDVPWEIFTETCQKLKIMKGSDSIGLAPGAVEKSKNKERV
# B1: ARF7 1030-1164 (Arabidopsis thaliana, UniProt P93022); chain PAQTQRMRTYTKVQKRGSVGRSIDVNRYRGYDELRHDLARMFGIEGQLEDPQTSDWKLVYVDHENDILLVGDDPWEEFVNCVQSIKILSSAEVQQMSLDGNFAGVPVTNQACSGGDSGNAWRGHYDDNSATSFNR
# B2: IAA8 (Arabidopsis thaliana, UniProt Q38826); chain MSYRLLSVDKDELVTSPCLKERNYLGLSDCSSVDSSTIPNVVGKSNLNFKATELRLGLPESQSPERETDFGLLSPRTPDEKLLFPLLPSKDNGSATTGHKNVVSGNKRGFADTWDEFSGVKGSVRPGGGINMMLSPKVKDVSKSIQEERSHAKGGLNNAPAAKAQVVGWPPIRSYRKNTMASSTSKNTDEVDGKPGLGVLFVKVSMDGAPYLRKVDLRTYTSYQQLSSALEKMFSCFTLGQCGLHGAQGRERMSEIKLKDLLHGSEFVLTYEDKDGDWMLVGDVPWEIFTETCQKLKIMKGSDSIGLAPGAVEKSKNKERV
Molecule,partner,positive tests
"IAA26 (Arabidopsis thaliana, UniProt Q8LAL2)","T1, itself",0
B1 (ARF7 1030-1164),"T2, itself",0
B2 (IAA8),"T3, itself",2
